# Results pooled from the literature.
# Numbered parts are unrelated; each lists some results of a single study. Changes are numbered by the printed parent chain.

# Block 1 — technique: DHFR PCA, deep sequencing; medium: yeast; with: (+)-ABA 17 µM; baseline: wild-type fitted maximum; direction: higher = stronger binding
# Target: ABI1, truncated, D143A, DHFR fusion (Arabidopsis thaliana)
# Notes: methotrexate growth selection, single substitutions
# Parent: PYL1, truncated, DHFR fusion (Arabidopsis thaliana); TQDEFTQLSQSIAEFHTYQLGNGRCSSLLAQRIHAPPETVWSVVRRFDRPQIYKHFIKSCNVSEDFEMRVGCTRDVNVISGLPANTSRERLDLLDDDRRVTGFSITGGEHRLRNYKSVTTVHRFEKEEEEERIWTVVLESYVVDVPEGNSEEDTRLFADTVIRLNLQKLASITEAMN; partner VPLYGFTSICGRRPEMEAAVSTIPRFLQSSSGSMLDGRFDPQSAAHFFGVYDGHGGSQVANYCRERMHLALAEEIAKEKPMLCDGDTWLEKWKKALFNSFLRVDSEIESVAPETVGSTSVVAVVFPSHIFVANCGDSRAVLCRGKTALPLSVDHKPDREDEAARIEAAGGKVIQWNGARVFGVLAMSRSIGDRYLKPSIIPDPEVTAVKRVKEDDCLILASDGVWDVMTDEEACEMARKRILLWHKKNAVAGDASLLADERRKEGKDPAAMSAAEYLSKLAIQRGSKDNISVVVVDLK
Variant,relative binding score [%]
R113C,74.9
Q31N,12.6
V78I,92.4
I105E,0.471
E130I,83.2

# Block 2 — target: CCND1, cyclin fold, Cln2 fusion (human); technique: yeast growth competition, sequencing; medium: yeast; notes: weak parent motif; baseline: not given; direction: higher = stronger binding
# Parent: WEE1 docking peptide (human); HKTFRKLRLFDTP; partner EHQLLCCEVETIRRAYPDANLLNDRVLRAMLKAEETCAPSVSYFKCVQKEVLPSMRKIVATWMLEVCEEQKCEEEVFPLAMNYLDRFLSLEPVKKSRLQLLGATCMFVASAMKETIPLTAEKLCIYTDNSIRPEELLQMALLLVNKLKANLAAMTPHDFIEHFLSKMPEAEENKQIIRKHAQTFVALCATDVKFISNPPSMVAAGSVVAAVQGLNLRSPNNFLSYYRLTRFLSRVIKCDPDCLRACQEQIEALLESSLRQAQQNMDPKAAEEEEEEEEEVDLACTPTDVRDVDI
Variant,normalised enrichment score
L7H,-0.665
D11Y,-0.361
L7Y,-0.0784
L9Y,-0.0468
R5M,0.424
F4N,0.178
F4P,-0.206
F4V,0.134

# Block 3 — technique: RNA Bind-n-Seq; form: RNA; medium: in vitro; concentration: 365 nM; baseline: no-protein control; direction: higher = stronger binding
# Target: RNA binding protein fox-1 homolog 2, RRM domain, GST-SBP tag (RBFOX2, Homo sapiens, UniProt O43251-10, residues 100-194)
# Notes: natural RNA segment, single round, ends assumed
# Shared flanks, not repeated: GGGAGUUCUACAGUCCGACGAUC … UGGAAUUCUCGGGUGCCAA
# Construct (chain): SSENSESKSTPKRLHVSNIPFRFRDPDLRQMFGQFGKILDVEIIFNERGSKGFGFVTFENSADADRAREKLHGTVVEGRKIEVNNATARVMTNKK
Sequence,RBNS enrichment (R)
UCUCCUGUCCAUGGGAAGCUUUUCCCCCUCUGCAGGGCUCCCUCAGCUGGACCAUCGUCCCUGCUUCUCUUAUGAUCGCCCCACCUCAUUUCCAUUUCAGUCUGGGGACC,0.528
UGAUCUGUUGUAAUAUCAGUUACAGUGGCAGUAUUGACAAUAAGAAACAGUUUAACAGAAAAAUGAAAUUUAAGCACAAAAAAUUUAAGAGAUUUUAUGUUUAAAAUGGC,0.57
GUGACAUUAGUUCCUUCUUCUGCUAUCCCCAAAACCUCAGAAACCUCAUAAUUCUUAACACCUGGCAUUUCCAUUUCUAAAGAUGGACAGGCCCUUUGGCGUGGUACCAA,0.793
AUCACAGUGAUUUGGUCCCAUUGGAGCCUUUGGCCCCAGGGGCACUCACUUUUUCUCAUCAGAGUCUCUCCUUGCCACAGCCCGGGUCACCAUCGGUUCCCUGGCCUCCC,0.179
UGUGGUGACAGACAAUGCUAAGGAGGGAUCGCUUUGCCUGCCGGGUUCUCAAGGCUCUCUACAGGUUGCCUCUUGUACUCAGAAGUAUUAAACACUGAUUAUUAAACCUU,0.544
UACUUGAGCUUUUGUGAUUCAAAGUUCAGGGGUGGUAAGGACUCUGGUACCAGGGAAGAGGGAGAAUUAAUUUAUUGUGCAAAUGCUGGUAUUUCUUACAUGAUUUUUUG,0.721
GAGUUAUAUUUUGUACUAUGGUUUAGGGCUAUGACUAAUAUUUCAGGCCAUUUCCAGUGAAAGAAACUUAGUUUUACAAGAAAACAUUUGCUACUGAAUGCUUACACUAA,0.543
CCAAAAAAUGCAUGAACUCCUGCUUUUCAAUCUGAUUACCUCAAACUGAAAAGCAGGUGAAAGGAGGAAUAUUUCAGUGUGUUUUUACAUCUGAAUCCAAGGGAUCCAAG,16.1

# Single results of other studies
Molecule,target,assay,system,conditions,scale,quantity,value
"PhoQ, residues 284 288 289 292 302 303 AMDMFI","PhoP, residues 12 14 15 18 19 NQAHL (Escherichia coli, UniProt P23836)","Sort-seq, item: YFP reporter",E. coli,"PhoQ-PhoP variant library, with: 10 µM Mg2+","baseline: high Mg2+ state, higher = stronger signaling",fold induction,1.48

# For quick reference, copied from above (block 2):
Variant,normalised enrichment score
R5M,0.424
